Assay results collected from several papers.
Organism: Candida albicans

| Structure (SMILES) | assay | test system | setting | MIC |
| --- | --- | --- | --- | --- |
| CCCCCCCC(=O)NCCCC[C@H](NC(=O)CCCCCCC)C(=O)N[C@@H](CCCCNC(=O)CCCCCCC)C(=O)NCC(=O)NCC(=O)NCC(=O)N[C@@H](CS)C(=O)N[C@@H](CCCNC(=N)N)C(=O)N[C@@H](CCCCN)C(=O)N1CCC[C@H]1C(N)=O | broth microdilution | 14936, RPMI-1640 | 48 h, 30 °C | > 128 µM |
| CCOC(=O)C(Cc1ccccc1)NC(=O)N1CCN(CC(OCc2cccc(C)c2)c2ccc(Cl)cc2)CC1 (centres unmarked) |  | DSY654 (Cdr efflux pump knockout) | 24 h, 35 °C | 4 µg/mL |
| Cc1ccc2nc(C)c(C(=O)C(=O)NCc3ccccc3)n2c1 | microbial growth, broth dilution |  |  | > 128 µM |
| C=C1NC(=O)C2CSCC3NC(=O)C(CSC(C)C(NC(=S)C(Cc4cnc[nH]4)NC(=O)c4csc(C(C)NC(C)=O)n4)C(=O)N[C@H](CC(C)C(=O)NC(=O)CC(C(=O)O)NC(=O)C(C)NC3=O)C(=O)N2)NC(=O)[C@@H]2CCCN2C(=O)[C@@H](CC(C)C)NC1=O (some centres unmarked) | EUCAST broth microdilution | clinical isolate, RPMI 1640 with MOPS | pH 7.0, 37 °C, 2% glucose | > 32 µg/mL |
| OC(Cn1cncn1)(Cn1cncn1)c1ccc(F)cc1F |  | CGMCC 2.209 | 48 h, drug alone | 8 µM |
| COC(=O)c1ccc(COC(CN2CCN(C(=O)NCc3ccc(OC)cc3)CC2)c2ccc(Cl)cc2)cc1 (centres unmarked) | microbial growth, broth dilution | DSY654 |  | 8 µg/mL |
| CC(C)C[C@H](NC(=O)[C@H](CC(C)C)NC(=O)[C@H](CCCCN)NC(=O)CNC(=O)[C@H](CC(C)C)NC(=O)CNC(=O)[C@H](CO)NC(=O)[C@H](CC(C)C)NC(=O)[C@H](CC(C)C)NC(=O)[C@H](CO)NC(=O)[C@H](CCCCN)NC(=O)[C@H](CC(C)C)NC(=O)[C@H](CCCCN)NC(=O)[C@H](CCCCN)NC(=O)[C@H](C)NC(=O)[C@H](C)NC(=O)[C@H](C)NC(=O)CNC(=O)[C@H](CO)NC(=O)[C@H](Cc1c[nH]c2ccccc12)NC(=O)[C@@H](N)CCCCN)C(=O)O | broth microdilution | ATCC 10231 | 44 h, 37 °C | 100 µM |
| CCCCCCCC(=O)NCCCC[C@H](NC(=O)CCCCCCC)C(=O)N[C@@H](CCCCNC(=O)CCCCCCC)C(=O)NCC(=O)NCC(=O)NCC(=O)N[C@@H](CS)C(=O)N[C@@H](CCCNC(=N)N)C(=O)N[C@@H](CCCCN)C(=O)N1CCC[C@H]1C(=O)N[C@@H](CS)C(=O)N[C@@H](CCCNC(=N)N)C(=O)N[C@@H](CCCCN)C(=O)N1CCC[C@H]1C(N)=O | broth microdilution | 56452, RPMI-1640 | 48 h, 30 °C | 8 µM |
| CCCCCCCCCCCCNC=C1N=C(c2ccc[nH]2)C=C1OC.Cl | broth microdilution | ATCC 90028 | 24 h | 2 µg/mL |
| COC(=O)c1ccc(COC(CN2CCN(C(=O)Nc3ccccc3C)CC2)c2ccc(Cl)cc2)cc1 (centres unmarked) |  | DSY654 (Cdr efflux pump knockout) | 24 h, 35 °C | 4 µg/mL |
| Cc1ccc2nc(C)c(C(=O)NCc3ccccc3)n2c1 | microbial growth, broth dilution |  |  | > 128 µM |
| CCCCCC(=O)NCCCC[C@H](NC(=O)CCCCC)C(=O)N[C@@H](CCCCNC(=O)CCCCC)C(=O)NCC(=O)NCC(=O)NCC(=O)N[C@@H](CS)C(=O)N[C@@H](CCCNC(=N)N)C(=O)N[C@@H](CCCCN)C(=O)N1CCC[C@H]1C(=O)N[C@@H](CS)C(=O)N[C@@H](CCCNC(=N)N)C(=O)N[C@@H](CCCCN)C(=O)N1CCC[C@H]1C(N)=O | broth microdilution | 56452, RPMI-1640 | 48 h, 30 °C | 8 µM |
| CC[C@H](C)[C@H](NC(=O)CNC(=O)[C@H](CC(=O)O)NC(=O)[C@H](CCCNC(=N)N)NC(=O)[C@@H](NC(=O)[C@H](Cc1c[nH]cn1)NC(=O)[C@H](CCC(N)=O)NC(=O)CNC(=O)[C@@H](NC(=O)[C@H](CCCNC(=N)N)NC(=O)[C@H](CCC(=O)O)NC(=O)[C@@H](NC(=O)[C@H](CCCCN)NC(=O)[C@H](CCCCN)NC(=O)[C@H](Cc1ccccc1)NC(=O)[C@@H](NC(=O)[C@H](CCCCN)NC(=O)[C@H](Cc1c[nH]c2ccccc12)NC(=O)[C@@H](N)CCCCN)[C@@H](C)CC)[C@@H](C)CC)C(C)C)C(C)C)C(=O)N[C@H](C(=O)N[C@@H](CCCCN)C(=O)N[C@@H](C)C(=O)NCC(=O)N[C@@H](CO)C(=O)N[C@@H](C)C(=O)N[C@H](C(=O)N[C@@H](CCC(N)=O)C(=O)N[C@H](C(=O)N[C@H](C(=O)NCC(=O)N[C@@H](CCC(N)=O)C(=O)N[C@@H](C)C(=O)N[C@@H](C)C(=O)N[C@@H](C)C(=O)N[C@H](C(=O)N[C@@H](C)C(=O)N[C@@H](CCCCN)C(N)=O)[C@@H](C)CC)C(C)C)C(C)C)C(C)C)[C@@H](C)CC | broth microdilution |  | 36 h, 35 °C | > 8 µM |
| N=C(N)NCCC[C@H](NC(=O)[C@H](CCCNC(=N)N)NC(=O)[C@H](Cc1ccccc1)NC(=O)[C@H](CO)NC(=O)[C@H](Cc1ccccc1)NC(=O)[C@H](Cc1c[nH]c2ccccc12)NC(=O)[C@H](Cc1ccccc1)NC(=O)[C@H](CO)NC(=O)[C@H](Cc1ccccc1)NC(=O)[C@H](CCCNC(=N)N)NC(=O)[C@@H](N)CCCNC(=N)N)C(N)=O |  | CGMCC 2.209, RPMI 1640 MOPS-buffered | 48 h, 37 °C, tested up to 128 µM | 2 µM |
| CN(C=O)CP(=O)(O)O | microbial growth, broth dilution | SC5314 | 24 h | > 128 µg/mL |
| CCCCCCCC(=O)NCCCC[C@H](NC(=O)CCCCCCC)C(=O)N[C@@H](CCCCNC(=O)CCCCCCC)C(=O)NCC(=O)NCC(=O)NCC(=O)N[C@@H](CS)C(=O)N[C@@H](CCCNC(=N)N)C(=O)N[C@@H](CCCCN)C(=O)N1CCC[C@H]1C(=O)N[C@@H](CS)C(=O)N[C@@H](CCCNC(=N)N)C(=O)N[C@@H](CCCCN)C(=O)N1CCC[C@H]1C(=O)N[C@@H](CS)C(=O)N[C@@H](CCCNC(=N)N)C(=O)N[C@@H](CCCCN)C(=O)N1CCC[C@H]1C(=O)N[C@@H](CS)C(=O)N[C@@H](CCCNC(=N)N)C(=O)N[C@@H](CCCCN)C(=O)N1CCC[C@H]1C(N)=O | broth microdilution | 58288, RPMI-1640 | 48 h, 30 °C | 32 µM |
| CN(C=O)CP(=O)(O)CCC(=O)O | microbial growth, broth dilution | SC5314 | 24 h | > 128 µg/mL |
| CC[C@H](C)[C@H](NC(=O)[C@H](CCCCN)NC(=O)[C@@H](NC(=O)[C@@H](NC(=O)[C@H](CC(C)C)NC(=O)[C@H](CCCNC(=N)N)NC(=O)[C@@H](NC(=O)[C@H](CC(C)C)NC(=O)[C@H](CCCNC(=N)N)NC(=O)CNC(=O)[C@H](Cc1ccccc1)NC(=O)[C@@H](N)CCCNC(=N)N)[C@@H](C)CC)[C@@H](C)CC)C(C)C)C(=O)N[C@@H](C)C(=O)N[C@@H](CCCNC(=N)N)C(=O)N[C@@H](CCCNC(=N)N)C(=O)N[C@@H](C)C(=O)N[C@@H](Cc1c[nH]cn1)C(=O)N[C@@H](CCCNC(=N)N)C(=O)N[C@@H](C)C(=O)N[C@@H](CCCNC(=N)N)C(=O)N[C@@H](CO)C(=O)N[C@@H](C)C(=O)N[C@H](C(=O)N[C@@H](CCCCN)C(=O)N[C@@H](C)C(=O)N[C@@H](C)C(=O)N[C@@H](CO)C(=O)N[C@@H](CC(N)=O)C(=O)N[C@H](C(=O)N[C@@H](C)C(=O)N[C@@H](C)C(=O)N[C@@H](CC(C)C)C(=O)N[C@@H](C)C(=O)N[C@@H](Cc1c[nH]cn1)C(=O)NCC(=O)N[C@@H](C)C(N)=O)C(C)C)C(C)C | broth microdilution |  | 36 h, 35 °C | ≤ 0.064 µM |
| CCCCCCCCCCCC(=O)NCCCC[C@H](NC(=O)CCCCCCCCCCC)C(=O)N[C@@H](CCCCNC(=O)CCCCCCCCCCC)C(=O)NCC(=O)NCC(=O)NCC(=O)N[C@@H](CS)C(=O)N[C@@H](CCCNC(=N)N)C(=O)N[C@@H](CCCCN)C(=O)N1CCC[C@H]1C(=O)N[C@@H](CS)C(=O)N[C@@H](CCCNC(=N)N)C(=O)N[C@@H](CCCCN)C(=O)N1CCC[C@H]1C(N)=O | broth microdilution | CGMCC 2.209, RPMI-1640 | 48 h, 30 °C | > 128 µM |
| O=C(CCCN1CCC(O)(c2ccc(Cl)cc2)CC1)c1ccc(F)cc1 | microbial growth, broth dilution | DSY654 |  | 4 µg/mL |

Repeated from above:
| Structure (SMILES) | assay | test system | setting | MIC |
| --- | --- | --- | --- | --- |
| CC[C@H](C)[C@H](NC(=O)[C@H](CCCCN)NC(=O)[C@@H](NC(=O)[C@@H](NC(=O)[C@H](CC(C)C)NC(=O)[C@H](CCCNC(=N)N)NC(=O)[C@@H](NC(=O)[C@H](CC(C)C)NC(=O)[C@H](CCCNC(=N)N)NC(=O)CNC(=O)[C@H](Cc1ccccc1)NC(=O)[C@@H](N)CCCNC(=N)N)[C@@H](C)CC)[C@@H](C)CC)C(C)C)C(=O)N[C@@H](C)C(=O)N[C@@H](CCCNC(=N)N)C(=O)N[C@@H](CCCNC(=N)N)C(=O)N[C@@H](C)C(=O)N[C@@H](Cc1c[nH]cn1)C(=O)N[C@@H](CCCNC(=N)N)C(=O)N[C@@H](C)C(=O)N[C@@H](CCCNC(=N)N)C(=O)N[C@@H](CO)C(=O)N[C@@H](C)C(=O)N[C@H](C(=O)N[C@@H](CCCCN)C(=O)N[C@@H](C)C(=O)N[C@@H](C)C(=O)N[C@@H](CO)C(=O)N[C@@H](CC(N)=O)C(=O)N[C@H](C(=O)N[C@@H](C)C(=O)N[C@@H](C)C(=O)N[C@@H](CC(C)C)C(=O)N[C@@H](C)C(=O)N[C@@H](Cc1c[nH]cn1)C(=O)NCC(=O)N[C@@H](C)C(N)=O)C(C)C)C(C)C | broth microdilution |  | 36 h, 35 °C | ≤ 0.064 µM |
| CCCCCCCCCCCC(=O)NCCCC[C@H](NC(=O)CCCCCCCCCCC)C(=O)N[C@@H](CCCCNC(=O)CCCCCCCCCCC)C(=O)NCC(=O)NCC(=O)NCC(=O)N[C@@H](CS)C(=O)N[C@@H](CCCNC(=N)N)C(=O)N[C@@H](CCCCN)C(=O)N1CCC[C@H]1C(=O)N[C@@H](CS)C(=O)N[C@@H](CCCNC(=N)N)C(=O)N[C@@H](CCCCN)C(=O)N1CCC[C@H]1C(N)=O | broth microdilution | CGMCC 2.209, RPMI-1640 | 48 h, 30 °C | > 128 µM |
| O=C(CCCN1CCC(O)(c2ccc(Cl)cc2)CC1)c1ccc(F)cc1 | microbial growth, broth dilution | DSY654 |  | 4 µg/mL |
